Results pooled from the literature.
Each numbered part is a random draw from the data of one study; scales do not carry over between parts. Changes are numbered by the printed parent chain.

Set 1 — target: CCND3, cyclin fold, Cln2 fusion (human); technique: yeast growth competition, sequencing; medium: yeast; notes: weak parent motif; reference: not given; reading: higher = stronger binding
Starting sequence: CDC6 docking peptide (human); TLKGRRLVFDNQL
`TLKGWRLVFDNQL [R5W]` — result for “normalised enrichment score”: 0.228.
Under “normalised enrichment score”, `TLKGRRLVFYNQL [D10Y]` is recorded as 0.154.
For `PLKGRRLVFDNQL [T1P]`, “normalised enrichment score” read 0.106.
For `TLKGRCLVFDNQL [R6C]`, “normalised enrichment score” read 0.152.
For `TLRGRRLVFDNQL [K3R]`, “normalised enrichment score” read 0.159.
`TLKGRRLVFDNQK [L13K]` — result for “normalised enrichment score”: 0.0526.

Set 2 — technique: RNA Bind-n-Seq; molecule type: RNA; medium: in vitro; tested at: 100 nM; reference: input RNA pool; reading: higher = stronger binding
Target: RING finger protein unkempt homolog, zinc fingers 1-6, SBP tag (UNK, Homo sapiens, UniProt Q9C0B0, residues 30-357)
Sequence of UniProt Q9C0B0 (30-357, looked up): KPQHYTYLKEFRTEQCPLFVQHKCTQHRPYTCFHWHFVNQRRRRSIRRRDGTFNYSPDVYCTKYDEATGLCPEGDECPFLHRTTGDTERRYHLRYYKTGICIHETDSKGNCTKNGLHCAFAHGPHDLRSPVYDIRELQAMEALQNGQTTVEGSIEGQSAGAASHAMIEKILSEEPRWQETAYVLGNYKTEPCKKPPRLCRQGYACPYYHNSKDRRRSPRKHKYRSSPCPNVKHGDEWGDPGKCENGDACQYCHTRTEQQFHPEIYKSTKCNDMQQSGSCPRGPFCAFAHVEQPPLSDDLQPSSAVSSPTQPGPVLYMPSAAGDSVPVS
Notes: RNA with constant flanks, vertebrate orthologous sites, ends assumed
With `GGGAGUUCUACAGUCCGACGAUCUCAGUCCCCUGGGCCGGGACAGAUUUUUUUUAAUGUCUUGAGACUUAAACUCUGUGCUUAGAGGAGACUGUAACCUUUUUGUCUUUUUUUUUUUUUUUUUUUUAAACAAACAACUUCCACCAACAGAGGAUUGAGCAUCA` the bound/input enrichment was 1.72 ratio.
The bound/input enrichment of `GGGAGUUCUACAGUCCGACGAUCGUGUGUGUGCGUGUGUGUGUGUGGGUUUGGGGGGGGCAAGCAGGCGGAAUCUCUAGGGUGUGUGGUAGUAGGAAGCACAGUUCUAAGUGGGCCUUUAUGUUAAACACCUCUGGUAGUGUCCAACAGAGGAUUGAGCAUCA` is reported as 0.809 ratio.
`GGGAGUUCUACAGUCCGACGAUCCGAUCAUGGAGAAAAAGAUAUUAAAAUAAUUUCAUGGCACUGGCAUUAAUUUAAUUUAUGGUUAGUUUUACAAGUGUUAGUGUUCUUGUUUACAUACAGCAGGAACCGACUCUUAGAGAGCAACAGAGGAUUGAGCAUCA` gave a bound/input enrichment of 0.429 ratio.
The bound/input enrichment of `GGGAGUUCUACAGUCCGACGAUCACAUCAUGGGUUACUCUCAUUUCUGUAGCAGGUGGAACAUUUUGCAAAACAUGUAUACACCUAGCUGAGCUGAAUAUAAUAUAUUUUUAUUAGCCUGUAAAUAAAUGUUGUCUUCUGCAUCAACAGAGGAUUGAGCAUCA` is reported as 0.366 ratio.
For `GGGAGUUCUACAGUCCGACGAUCCAUUGUAUCCUGCUGUAUAAUAAACAGUCUUAGACAUUUAUCAACUGUUGAUACAAAUCUUAGUCCCUAACCACUUUUUAUAUGUUUUAAAUUUUUGAAAUUCAAGUGUACCUGCCAUAACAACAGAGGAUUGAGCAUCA`, the bound/input enrichment was 2.15 ratio.
For `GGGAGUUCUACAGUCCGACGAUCUCUCCUAGCUCAUACCAGCAUCUUCGCUAUCAGACGUGCACAGCUUACAAAGGAACAGUCUAGUGGUAUUUUUUUAAUUUAAAACCUGCUUUUCCCAAGACUGAAAAAGAAGCUACGAUUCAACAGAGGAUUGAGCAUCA`, the bound/input enrichment was 0.997 ratio.

Set 3 — technique: universal PBM; molecule type: double-stranded DNA, one strand shown; medium: in vitro; tested at: 600 nM; reading: higher = stronger binding
Target: Sal-like protein 4, full length isoform A (SALL4, Homo sapiens, UniProt Q9UJQ4, residues 1-1053)
Sequence of UniProt Q9UJQ4 (whole entry, looked up): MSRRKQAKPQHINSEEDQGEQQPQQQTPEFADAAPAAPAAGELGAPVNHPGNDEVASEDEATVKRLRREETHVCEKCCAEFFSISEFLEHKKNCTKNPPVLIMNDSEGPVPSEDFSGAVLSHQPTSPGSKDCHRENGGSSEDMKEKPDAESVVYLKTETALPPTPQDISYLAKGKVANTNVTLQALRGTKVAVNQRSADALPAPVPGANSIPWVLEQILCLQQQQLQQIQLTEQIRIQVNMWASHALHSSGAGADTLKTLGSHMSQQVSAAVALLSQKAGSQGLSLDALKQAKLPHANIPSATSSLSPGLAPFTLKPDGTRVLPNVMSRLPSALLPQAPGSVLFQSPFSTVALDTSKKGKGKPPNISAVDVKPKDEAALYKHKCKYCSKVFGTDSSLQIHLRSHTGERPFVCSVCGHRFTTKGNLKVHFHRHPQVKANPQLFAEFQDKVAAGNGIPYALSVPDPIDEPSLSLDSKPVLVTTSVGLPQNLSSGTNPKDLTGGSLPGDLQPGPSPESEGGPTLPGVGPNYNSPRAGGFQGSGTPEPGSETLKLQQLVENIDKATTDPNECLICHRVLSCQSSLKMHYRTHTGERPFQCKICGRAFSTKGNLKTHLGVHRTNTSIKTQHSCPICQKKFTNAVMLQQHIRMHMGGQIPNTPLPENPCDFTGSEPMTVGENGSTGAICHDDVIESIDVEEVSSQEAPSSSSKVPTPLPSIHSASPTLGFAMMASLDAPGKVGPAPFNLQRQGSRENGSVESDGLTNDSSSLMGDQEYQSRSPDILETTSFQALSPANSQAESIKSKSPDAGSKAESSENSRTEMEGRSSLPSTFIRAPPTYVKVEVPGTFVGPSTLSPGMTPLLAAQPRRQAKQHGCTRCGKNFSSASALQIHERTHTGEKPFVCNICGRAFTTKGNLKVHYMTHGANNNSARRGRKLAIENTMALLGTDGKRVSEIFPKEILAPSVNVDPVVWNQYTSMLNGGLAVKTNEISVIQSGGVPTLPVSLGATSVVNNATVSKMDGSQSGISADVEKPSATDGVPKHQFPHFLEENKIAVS
Notes: 8-mer, flanks averaged, mean of replicates
`ATGGCGCC` gave an E-score of -0.284.
With `AGAATTAG` the E-score was 0.113.
`CCCGTTCG` has an E-score of -0.133.
`AACCCCCG` has an E-score of -0.271.
For `CTGGTTAA`, the E-score was 0.166.
The E-score of `AACTGAGG` is reported as 0.0881.

Further values, each from its own experiment
With `PhoQ, residues 284 288 289 292 302 303 SLKLQV` the fold induction was 13.4 (PhoP, residues 12 14 15 18 19 QQAYL (Escherichia coli, UniProt P23836); Sort-seq, measured: YFP reporter; E. coli; PhoQ-PhoP variant library, together with: 10 µM Mg2+; reference: high Mg2+ state, higher = stronger signaling).

Some of these lines once more (set 2):
The bound/input enrichment of `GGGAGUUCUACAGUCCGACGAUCACAUCAUGGGUUACUCUCAUUUCUGUAGCAGGUGGAACAUUUUGCAAAACAUGUAUACACCUAGCUGAGCUGAAUAUAAUAUAUUUUUAUUAGCCUGUAAAUAAAUGUUGUCUUCUGCAUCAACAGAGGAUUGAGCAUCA` is reported as 0.366 ratio.
